Published values collected from several papers.
Each numbered part is a random draw from the data of one study; scales do not carry over between parts.

Series 1
Target: Histone acetyltransferase KAT6A, winged helix 2, GST fusion (KAT6A, Homo sapiens, UniProt Q92794, residues 85-181)
Technique: protein binding microarray
Molecule type: double-stranded DNA, one strand shown
Medium: in vitro
Concentration: not given
Setting: 8-mer, flanks averaged, mean of 2 arrays, mostly near background
Reference: not given
Reading: higher = stronger binding
Target sequence (chain): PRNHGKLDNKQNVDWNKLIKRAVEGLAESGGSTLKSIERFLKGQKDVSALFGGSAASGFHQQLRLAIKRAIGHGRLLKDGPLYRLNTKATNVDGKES
Sequence | E-score
ACACCCTA | -0.185
AAAAGGTG | -0.085
GAAGGAAC | 0.0412
AAGAGGGC | 0.0276
ACTGACAG | -0.0656
CAGAATTC | 0.139
ATTGCGGG | 0.0112
ATACCTTG | -0.0674
CTCCGGTA | -0.157
GTCACAAC | 0.0636
AAGTAACC | -0.201
GAGGGTGC | -0.0533
AATTTCGT | -0.0537
AAGGAATG | 0.0151
AACCAGCA | -0.0246
ACCCTGGG | 0.124
AGGGTGTG | 0.028
TCTACAGA | 0.0166

Series 2
Target: RING finger protein unkempt homolog, zinc fingers 1-6, GST-SBP tag (UNK, Homo sapiens, UniProt Q9C0B0, residues 30-357)
Sequence of UniProt Q9C0B0 (30-357, looked up): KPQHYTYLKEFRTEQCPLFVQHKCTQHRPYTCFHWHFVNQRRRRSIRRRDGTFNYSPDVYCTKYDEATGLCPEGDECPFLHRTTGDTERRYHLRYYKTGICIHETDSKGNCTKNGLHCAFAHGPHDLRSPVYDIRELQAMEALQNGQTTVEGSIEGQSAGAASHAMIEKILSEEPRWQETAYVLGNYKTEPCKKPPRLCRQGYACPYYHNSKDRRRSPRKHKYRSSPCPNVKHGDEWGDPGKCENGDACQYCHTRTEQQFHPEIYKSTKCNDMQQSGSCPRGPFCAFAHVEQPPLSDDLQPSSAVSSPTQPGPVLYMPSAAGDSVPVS
Technique: RNA Bind-n-Seq
Molecule type: RNA
Medium: in vitro
Concentration: not given
Setting: RNA with constant flanks, human and mouse sites, ends assumed
Reference: input RNA pool
Reading: higher = stronger binding
Constant ends, left off below: GGGAGUUCUACAGUCCGACGAUC … CAACAGAGGAUUGAGCAUCA
Sequence | bound/input enrichment [ratio]
CAUACUUGAACAUUUGUAUCGACUGCAUUGUCUCUCUUUUUUUGGCUAUAAUUAUUCACCUUUAGCUUUUGUCUCUUGUGCAUGCUAUCACAGUUUUGCUUGUAUUUUUAGCAUAUGAAC | 2.13
UCGCCGACCACCAUGCCCUGCCCGCCGCCGCCCAGCCCCACCAUGGCUGCCGAGGGCGACUGGGCACGCCUGUUGGAGCAGAUGGGUGAGCUGGCCAUGCGGGGCAGCCAGCGGGAGCUG | 0.103
CGUGUCACAUCUCAGGUAUCUAAUUUGAAGAAAAAAGAAACUACAGCAGAUUCUCAAACCACAACAUCUAAGUCAUUACAGAAUCAGUCUCUGAAAGAAAAUCAGAAGAAGCCAUUUGUG | 0.173
CUCAAUGCCUUAACCAAGCGUGUCUCCCCACUGAUAGGACGUUUUGUUCCCUUCGCUGCUGUAGCUGCUGCUAACUGCAUUAACAUCCCACUGAUGAGACAAAGGGAGCUGAAGGUUGGU | 0.193
GCAGGGAUCCUGUCAGCCCUGGGUUCUAAGACAUCACUGAUGAUACGGCAUGAUAAGGUACUUAGAAGUUUUGAUUCAAUGAUCAGCACCAACUGCACGGAGGAGCUGGAGAACGCUGGC | 0.248
AUUAUUAAGAAUAAAGUCACUGGAGAAAGUAAAGGCUUGGGCUACGUGCGCUAUUUAAAACCAUCACAAGCUGCCCAGGCAAUAGAAAACUGUGAUAGAAGUUUCAGAGCACUCUUGGCU | 0.451
CCUACAACCAUCAUGAAUGCAGAUAUUCUAGCAUAUUGUCAGAAGGAAGGAUGGUGCAAAUUAGCUUUUUAUCUUCUAGCAUUUUUUUACUACCUAUAUGGCAUGAUCUAUGUUUUGGUG | 14
UCCGGUUUGGUAAUCAAUACACCUGGAGAAAUGGCUGGAGCCUUCGUGGCAGUGUUUUUACUAGCAAUGUUUUAUGAAGGACUCAAGAUAGCCCGAGAGGGUCUGCUUCGAAAGUCUCAA | 0.128

Series 3
Target: Interferon regulatory factor 5, full length, phosphomimetic (IRF5, Homo sapiens, UniProt Q13568-2, residues 1-514, S451D/S453D/S456D/S462D)
Technique: protein-binding microarray
Molecule type: double-stranded DNA, one strand shown
Medium: in vitro
Concentration: 940 nM top
Setting: 60-bp whole probe
Added: salmon DNA 0.4 mg/ml
Reference: random background probes
Reading: higher = stronger binding
Constant ends, left off below: GCCTAGCAC … GTCTTGATTCGCTTGACGCTGCTG
Sequence | fitted relative affinity [z-score]
ATGTCTTCCCCTCTCATTCCGTGCTAG | 0.902
GACCATTTCGGGTATCGAGACGTGCTA | 1.24
TTAGGTTTCCTTATCCTTCAGTGCTAG | 1.8
GACGAGTTCAGTTTCGAGACGTGCTAG | 5.16
TTAGGTATCGGTACTGGGTTAGTGCTA | 8.78
AATTAAATGATATATATCCATGTGCTA | -0.16
TTATGTTCCCTTTTCCTTTAGTGCTAG | 1.91
GACGATTTGGGGTATCGAGACGTGCTA | 1.07
TTAGGACTGCTTTTCCTTTAGTGCTAG | -0.128
AAGGTATTATTTATTGTAGCGTGCTAG | -0.309
TGAAATTTTAGTAACACAGAGTGCTAG | -0.128
AGTGGGGAGGGAGAGAATCCGTGCTAG | 0.939
GACGAACTGAGGTTCGAGACGTGCTAG | -0.717
GACCGACTGGGTTTCGGGACGTGCTAG | 3.93
GACGGTATCAGGTATCGGGACGTGCTA | 2.12
GACGATTTCAGTCTCGAGAGGTGCTAG | 1.41
TTAGATTTCAGTCGCGATTAGTGCTAG | 0.634
TCATCTTCAGCACTCGGACTGTGCTAG | 0.265
TCATTTTCCTACATCAGACTGTGCTAG | 1.29

Series 4
Target: RNA binding protein fox-1 homolog 2, RRM domain, GST-SBP tag (RBFOX2, Homo sapiens, UniProt O43251-10, residues 100-194)
Technique: RNA Bind-n-Seq
Molecule type: RNA
Medium: in vitro
Concentration: 365 nM
Setting: natural RNA segment, single round, ends assumed
Reference: no-protein control
Reading: higher = stronger binding
Constant ends, left off below: GGGAGUUCUACAGUCCGACGAUC … UGGAAUUCUCGGGUGCCAA
Residues (chain): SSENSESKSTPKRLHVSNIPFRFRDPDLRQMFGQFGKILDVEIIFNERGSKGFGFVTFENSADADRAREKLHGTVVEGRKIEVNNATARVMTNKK
Sequence | RBNS enrichment (R)
UGAUAACCAAAUAGUAAUAUGCCAGUUCUUUCUUCUUUUUUUAGCUUCAGUAGUAGCUAAGCCAUUAAUACAGUUUGCAUCAAUUUCCCCAUUUAUUUAUAAUCAGCCUU | 0.941
GCUUCUGAGUUUUAUAUUGUUUGCAUCCCAUUGCCCUCAAUAAAGAAAGUCCUUUUUUUAAGUUCUGAAUUUGACGUAGAGUGUUUCUUGCUCCUUCUGAAAUGCUUGCU | 0.832
GCUCACUUAGGCAGGAAUGGUCUUACCUUUUAAAAGCUUGUGGGAAACUGAAUUUGAAAUGACAAAAUGUCAAGUAUUAAAGCUGGUAUUUAAGAUGCUUGUAAAUAUUA | 0.368
GAGCCCGACUGCCCUCGGGCACACGGCCUGCCUGUCGCAUGUUUGUGUCUGCCUCGUUCCCUCCCCUGUGCCUGUGUCUGCAGAAAAACAAGACCAGAUGUGAUUUGUUA | 19.9
CAAAGUAACAGAAGGUUAUUUGUAAGAAAGUUAAAGGCUUGUGAACAAAGAAAGCUAAGCUGUUGUACAUAUUUGUAGUUGGCUGUGCAUGGUACAAAUUUAUUAAUAUG | 4.21
CACAGCUCACUGCAGCCUCCAUCUCCUAGGCUCAAGCCAUUUUCCCACCUCAGCCUCCCGAGUAGCUGGGACUACAGGUGCACACCACCACACCUGGCUAAUUUUUUGUA | 0.88
CGUGCUCUUCACACUCUCUGAGGCCUCAGUCCAUGUCCUAUAUCAGUUUCUCUUUUGUGUGCUUUACCAAGUGGCCGGUGACUACAGGCCACCCCGAUUCUCACCACAAA | 0.291
UAGAAACCUCAUCUUGGGUACAAGGAAGGAUAGUUCUGUCACUUUAACUUGUUUCAAUGCCUACUUUUAAUGGAGGUUAUUAAACACUUUAACCUCCCUUCUAGCCCACC | 0.25

For quick reference, copied from above (series 3):
Sequence | fitted relative affinity [z-score]
GACGGTATCAGGTATCGGGACGTGCTA | 2.12
AGTGGGGAGGGAGAGAATCCGTGCTAG | 0.939
GACCATTTCGGGTATCGAGACGTGCTA | 1.24
ATGTCTTCCCCTCTCATTCCGTGCTAG | 0.902
GACGATTTCAGTCTCGAGAGGTGCTAG | 1.41
AAGGTATTATTTATTGTAGCGTGCTAG | -0.309
TTAGGTATCGGTACTGGGTTAGTGCTA | 8.78
